{"data": "Results from different studies", "note": "Each line is one published result; not all experiments were run side by side. ± marks the error that the study gave."}
{"Compound": "N=C(N)NCCC[C@@H]1NC(=O)[C@H](CCCCNC(=O)CC[C@H](NC(=O)CCOCCOCCOCCOCCNC(=O)CN2CCN(CC(=O)O)CCN(CC(=O)O)CCN(CC(=O)O)CC2)C(=O)NCCCC[C@@H]2NC(=O)[C@@H](Cc3ccccc3)NC(=O)[C@H](CC(=O)O)NC(=O)CNC(=O)[C@H](CCCNC(=N)N)NC2=O)NC(=O)[C@@H](Cc2ccccc2)NC(=O)[C@H](CC(=O)O)NC(=O)CNC1=O [indium-111 labelled]", "test system": "female athymic nude mice, lungs", "conditions": "intravenous, 3 µCi, 1 h, U-87 MG glioma xenograft", "tissue uptake": "1.91 ± 0.25 %ID/g"}
{"Compound": "CC(C)C[C@H](NC(=O)[C@H](Cc1ccc(O)cc1)NC(=O)[C@@H](CCCNC(=N)N)NC(=O)[C@@H](CO)NC(=O)[C@H](Cc1ccccc1)NC(=O)[C@H](CC1CCCCC1)NC(=O)[C@H](CC(=O)O)NC(=O)CCC(C(=O)O)N1CCCN2CCN(CCCN(CC(=O)O)CC2)CC1)C(=O)N[C@@H](Cc1c[nH]c2ccccc12)C(=O)N[C@@H](CO)C(=O)O (stereo partly shown) [copper-64 labelled]", "test system": "female NMRI nude mice, liver", "conditions": "1 h p.i.", "tissue uptake": "4.8 ± 0.7 %ID/g"}
{"Compound": "CCCC[C@H](NC(=O)COCCOCCNC(=O)c1ccc(NN)nc1)C(=O)N[C@H]1CC(=O)NCCCC[C@@H](C(N)=O)NC(=O)[C@H](Cc2c[nH]c3ccccc23)NC(=O)[C@H](CCCNC(=N)N)NC(=O)[C@@H](Cc2ccccc2)NC(=O)[C@H](Cc2c[nH]cn2)NC1=O [technetium-99m labelled]", "test system": "C57 mouse, female, B16/F1 melanoma, blood", "conditions": "intravenous, 0.037 MBq, 2 h", "tissue uptake": "0.39 ± 0.07 %ID/g"}
{"Compound": "CSCC[C@H](NC(=O)[C@H](CC(C)C)NC(=O)[C@H](Cc1c[nH]cn1)NC(=O)CNC(=O)[C@@H](NC(=O)[C@H](C)NC(=O)[C@H](Cc1c[nH]c2ccccc12)NC(=O)[C@H](CCC(N)=O)NC(=O)CCCCCNC(=O)CNC(=O)CNC(=O)CNC(=O)CSC(C)=O)C(C)C)C(N)=O [technetium-99m labelled]", "test system": "Swiss mouse, lung", "conditions": "intravenous, 18.5 MBq, 90 min", "tissue uptake": "0.21 ± 0.03 %ID/g"}
{"Compound": "N=C(N)NCCC[C@@H]1NC(=O)[C@H](CC(=O)NC23CNCCNCC(N)(CNCCNC2)CNCCNC3)NC(=O)[C@@H](Cc2ccccc2)NC(=O)[C@H](CC(=O)O)NC(=O)CNC1=O [copper-64 labelled]", "test system": "Nu/Nu mouse, male, tumour-bearing, liver", "conditions": "intravenous, 10 µCi, 24 h", "tissue uptake": "2.24 ± 0.41 %ID/g"}
{"Compound": "N=C(N)NCCC[C@@H]1NC(=O)[C@H](CCCCNC(=O)CNC(=O)CNC(=O)CNC(=O)CC[C@H](NC(=O)c2ccc(NN=Cc3ccccc3S(=O)(=O)O)nc2)C(=O)NCC(=O)NCC(=O)NCC(=O)NCCCC[C@@H]2NC(=O)[C@@H](Cc3ccccc3)NC(=O)[C@H](CC(=O)O)NC(=O)CNC(=O)[C@H](CCCNC(=N)N)NC2=O)NC(=O)[C@@H](Cc2ccccc2)NC(=O)[C@H](CC(=O)O)NC(=O)CNC1=O [technetium-99m labelled]", "test system": "athymic nu/nu mouse, female, U-87 MG glioma xenograft, muscle", "conditions": "intravenous, 120 min", "tissue uptake": "1.25 ± 0.1 %ID/g"}
{"Compound": "N=C(N)NCCC[C@@H]1NC(=O)[C@H](CCCCNC(=O)CCOCCOCCOCCOCCNC(=O)CC[C@H](NC(=O)CCOCCOCCOCCOCCNC(=O)CC[C@H](NC(=O)CN2CCN(CC(=O)O)CCN(CC(=O)O)CCN(CC(=O)O)CC2)C(=O)NCCOCCOCCOCCOCCC(=O)N[C@@H](CCC(=O)NCCOCCOCCOCCOCCC(=O)NCCCC[C@@H]2NC(=O)[C@@H](Cc3ccccc3)NC(=O)[C@H](CC(=O)O)NC(=O)CNC(=O)[C@H](CCCNC(=N)N)NC2=O)C(=O)NCCOCCOCCOCCOCCC(=O)NCCCC[C@@H]2NC(=O)[C@@H](Cc3ccccc3)NC(=O)[C@H](CC(=O)O)NC(=O)CNC(=O)[C@H](CCCNC(=N)N)NC2=O)C(=O)NCCOCCOCCOCCOCCC(=O)NCCCC[C@@H]2NC(=O)[C@@H](Cc3ccccc3)NC(=O)[C@H](CC(=O)O)NC(=O)CNC(=O)[C@H](CCCNC(=N)N)NC2=O)NC(=O)[C@@H](Cc2ccccc2)NC(=O)[C@H](CC(=O)O)NC(=O)CNC1=O [indium-111 labelled]", "test system": "female athymic nude mice, liver", "conditions": "intravenous, 3 µCi, 0.5 h, U-87 MG glioma xenograft", "tissue uptake": "4.09 ± 0.54 %ID/g"}
{"Compound": "CCCC[C@H](NC(=O)CCCCCCCNC(=O)c1ccc(NN)nc1)C(=O)N[C@H]1CC(=O)NCCCC[C@@H](C(N)=O)NC(=O)[C@H](Cc2c[nH]c3ccccc23)NC(=O)[C@H](CCCNC(=N)N)NC(=O)[C@@H](Cc2ccccc2)NC(=O)[C@H](Cc2c[nH]cn2)NC1=O [technetium-99m labelled]", "test system": "C57 mouse, B16/F1 melanoma, bone", "conditions": "2 h, together with: NDP-MSH 10 µg (6.07 nmol) co-injected", "tissue uptake": "0.3 ± 0.08 %ID/g"}
{"Compound": "N=C(N)NCCC[C@@H]1NC(=O)[C@H](CCCCNC(=O)CC[C@H](NC(=O)CCOCCOCCOCCOCCNC(=O)CC[C@H](NC(=O)CN2CCN(CC(=O)O)CCN(CC(=O)O)CCN(CC(=O)O)CC2)C(=O)NCCOCCOCCOCCOCCC(=O)N[C@@H](CCC(=O)NCCCC[C@@H]2NC(=O)[C@@H](Cc3ccccc3)NC(=O)[C@H](CC(=O)O)NC(=O)CNC(=O)[C@H](CCCNC(=N)N)NC2=O)C(=O)NCCCC[C@@H]2NC(=O)[C@@H](Cc3ccccc3)NC(=O)[C@H](CC(=O)O)NC(=O)CNC(=O)[C@H](CCCNC(=N)N)NC2=O)C(=O)NCCCC[C@@H]2NC(=O)[C@@H](Cc3ccccc3)NC(=O)[C@H](CC(=O)O)NC(=O)CNC(=O)[C@H](CCCNC(=N)N)NC2=O)NC(=O)[C@@H](Cc2ccccc2)NC(=O)[C@H](CC(=O)O)NC(=O)CNC1=O [indium-111 labelled]", "test system": "female athymic nude mice, muscle", "conditions": "intravenous, 3 µCi, 24 h, U-87 MG glioma xenograft", "tissue uptake": "0.39 ± 0.26 %ID/g"}
{"Compound": "CCCC[C@H](NC(=O)CNC(=O)CNC(=O)c1ccc(NN)nc1)C(=O)N[C@H]1CC(=O)NCCCC[C@@H](C(N)=O)NC(=O)[C@H](Cc2c[nH]c3ccccc23)NC(=O)[C@H](CCCNC(=N)N)NC(=O)[C@@H](Cc2ccccc2)NC(=O)[C@H](Cc2c[nH]cn2)NC1=O [technetium-99m labelled]", "test system": "C57 mouse, B16/F1 melanoma-bearing, brain", "conditions": "intravenous, 0.5 h", "tissue uptake": "0.1 ± 0.02 %ID/g"}
